Assay results gathered from unrelated publications.
Each numbered part is a random draw from the data of one study; scales do not carry over between parts. Substitutions count along the parent as printed.
Sequence of UniProt P37173 (whole entry, looked up): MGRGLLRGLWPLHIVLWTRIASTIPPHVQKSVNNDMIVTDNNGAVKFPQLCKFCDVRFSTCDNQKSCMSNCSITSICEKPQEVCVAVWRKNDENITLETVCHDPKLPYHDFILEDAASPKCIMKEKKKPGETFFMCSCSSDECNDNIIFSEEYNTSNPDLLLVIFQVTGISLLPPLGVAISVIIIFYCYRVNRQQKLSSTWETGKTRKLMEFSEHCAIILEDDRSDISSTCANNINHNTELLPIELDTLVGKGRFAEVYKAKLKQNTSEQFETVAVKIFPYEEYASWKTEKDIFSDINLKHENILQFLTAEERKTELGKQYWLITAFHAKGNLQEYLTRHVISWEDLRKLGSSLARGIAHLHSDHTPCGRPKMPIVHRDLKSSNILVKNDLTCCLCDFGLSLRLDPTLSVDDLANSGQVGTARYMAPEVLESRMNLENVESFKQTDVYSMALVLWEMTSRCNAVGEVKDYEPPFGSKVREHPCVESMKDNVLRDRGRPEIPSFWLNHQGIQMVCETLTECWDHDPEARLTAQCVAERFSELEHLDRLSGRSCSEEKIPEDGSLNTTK
Sequence of UniProt Q96RR4 (whole entry, looked up): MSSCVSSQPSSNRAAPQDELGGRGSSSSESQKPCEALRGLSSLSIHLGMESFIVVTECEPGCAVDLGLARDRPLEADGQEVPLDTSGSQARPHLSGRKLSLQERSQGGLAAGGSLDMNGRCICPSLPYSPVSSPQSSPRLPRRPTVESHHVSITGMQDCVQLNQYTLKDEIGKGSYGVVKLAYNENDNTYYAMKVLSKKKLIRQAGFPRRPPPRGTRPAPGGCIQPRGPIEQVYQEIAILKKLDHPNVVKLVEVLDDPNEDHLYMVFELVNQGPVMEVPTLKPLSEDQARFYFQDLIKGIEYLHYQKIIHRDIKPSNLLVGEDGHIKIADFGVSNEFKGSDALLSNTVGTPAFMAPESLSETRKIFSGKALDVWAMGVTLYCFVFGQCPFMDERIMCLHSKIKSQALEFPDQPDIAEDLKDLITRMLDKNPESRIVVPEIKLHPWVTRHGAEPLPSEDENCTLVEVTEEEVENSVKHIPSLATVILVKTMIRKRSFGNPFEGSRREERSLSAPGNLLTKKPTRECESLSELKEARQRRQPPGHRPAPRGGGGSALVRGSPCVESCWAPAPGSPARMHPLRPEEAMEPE
Sequence of UniProt Q14164 (whole entry, looked up): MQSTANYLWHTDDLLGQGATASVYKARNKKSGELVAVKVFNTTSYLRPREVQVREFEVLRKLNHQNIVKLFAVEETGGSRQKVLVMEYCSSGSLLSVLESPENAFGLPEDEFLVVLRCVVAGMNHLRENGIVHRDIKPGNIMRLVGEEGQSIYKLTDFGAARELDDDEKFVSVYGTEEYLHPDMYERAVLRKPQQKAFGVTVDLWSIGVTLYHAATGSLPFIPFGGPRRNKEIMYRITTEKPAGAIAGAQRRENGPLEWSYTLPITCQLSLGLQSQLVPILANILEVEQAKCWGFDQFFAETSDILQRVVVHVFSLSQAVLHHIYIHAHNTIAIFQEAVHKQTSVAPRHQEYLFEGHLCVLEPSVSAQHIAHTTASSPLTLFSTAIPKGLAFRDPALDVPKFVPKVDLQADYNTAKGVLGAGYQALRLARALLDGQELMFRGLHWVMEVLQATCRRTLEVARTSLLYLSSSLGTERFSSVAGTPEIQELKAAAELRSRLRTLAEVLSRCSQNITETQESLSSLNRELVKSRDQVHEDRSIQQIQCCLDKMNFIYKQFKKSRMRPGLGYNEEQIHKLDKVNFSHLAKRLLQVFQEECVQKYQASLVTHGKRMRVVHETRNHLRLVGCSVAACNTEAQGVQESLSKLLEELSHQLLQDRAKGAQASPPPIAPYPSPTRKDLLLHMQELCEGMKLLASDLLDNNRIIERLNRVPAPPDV
Sequence of UniProt O95747 (whole entry, looked up): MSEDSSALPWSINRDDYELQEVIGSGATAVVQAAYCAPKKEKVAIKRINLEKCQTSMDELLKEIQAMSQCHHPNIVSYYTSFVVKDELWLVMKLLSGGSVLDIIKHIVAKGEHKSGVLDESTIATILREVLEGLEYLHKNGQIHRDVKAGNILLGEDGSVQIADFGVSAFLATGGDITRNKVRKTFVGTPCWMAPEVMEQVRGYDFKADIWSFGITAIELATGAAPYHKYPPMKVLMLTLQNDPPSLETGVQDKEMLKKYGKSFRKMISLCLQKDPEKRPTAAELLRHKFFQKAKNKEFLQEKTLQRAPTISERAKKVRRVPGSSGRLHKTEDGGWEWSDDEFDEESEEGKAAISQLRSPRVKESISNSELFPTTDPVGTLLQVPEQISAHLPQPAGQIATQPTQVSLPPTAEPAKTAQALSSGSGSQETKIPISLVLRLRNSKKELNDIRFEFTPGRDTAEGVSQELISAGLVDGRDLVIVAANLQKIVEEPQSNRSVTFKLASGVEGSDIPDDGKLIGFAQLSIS
Sequence of UniProt P11802 (whole entry, looked up): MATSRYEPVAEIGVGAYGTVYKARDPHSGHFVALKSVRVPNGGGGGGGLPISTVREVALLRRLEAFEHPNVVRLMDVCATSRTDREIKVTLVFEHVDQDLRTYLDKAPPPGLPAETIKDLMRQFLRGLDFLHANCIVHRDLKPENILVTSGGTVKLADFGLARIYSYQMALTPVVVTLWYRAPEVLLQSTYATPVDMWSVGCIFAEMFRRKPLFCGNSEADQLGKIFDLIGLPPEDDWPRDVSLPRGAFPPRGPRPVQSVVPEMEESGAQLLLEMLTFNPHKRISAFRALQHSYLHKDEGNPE
Sequence of UniProt Q99558 (whole entry, looked up): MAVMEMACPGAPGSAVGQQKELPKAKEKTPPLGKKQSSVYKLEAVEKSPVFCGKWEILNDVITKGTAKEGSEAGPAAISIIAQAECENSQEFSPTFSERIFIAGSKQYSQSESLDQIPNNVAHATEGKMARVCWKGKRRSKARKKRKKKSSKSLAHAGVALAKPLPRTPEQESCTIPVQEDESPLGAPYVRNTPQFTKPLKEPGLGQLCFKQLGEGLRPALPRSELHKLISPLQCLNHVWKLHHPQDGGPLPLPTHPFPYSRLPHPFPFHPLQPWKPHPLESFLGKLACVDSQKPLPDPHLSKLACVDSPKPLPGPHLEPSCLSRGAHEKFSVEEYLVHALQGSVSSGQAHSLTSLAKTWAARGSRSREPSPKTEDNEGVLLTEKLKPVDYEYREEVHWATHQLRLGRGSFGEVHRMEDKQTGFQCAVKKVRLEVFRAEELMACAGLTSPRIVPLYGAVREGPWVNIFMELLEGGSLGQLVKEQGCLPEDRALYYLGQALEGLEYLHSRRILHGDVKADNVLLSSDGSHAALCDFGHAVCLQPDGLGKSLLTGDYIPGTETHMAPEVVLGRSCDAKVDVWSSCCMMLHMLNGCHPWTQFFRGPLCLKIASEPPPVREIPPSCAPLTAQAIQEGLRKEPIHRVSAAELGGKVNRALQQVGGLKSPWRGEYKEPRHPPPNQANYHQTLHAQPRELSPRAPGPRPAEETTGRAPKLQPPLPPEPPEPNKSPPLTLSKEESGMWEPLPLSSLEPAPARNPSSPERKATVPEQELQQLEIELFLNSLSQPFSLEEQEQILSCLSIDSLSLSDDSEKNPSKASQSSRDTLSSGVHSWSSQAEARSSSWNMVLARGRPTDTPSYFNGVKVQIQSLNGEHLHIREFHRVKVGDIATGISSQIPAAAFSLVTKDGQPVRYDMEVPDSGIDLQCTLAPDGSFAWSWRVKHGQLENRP
Sequence of UniProt P36897 (whole entry, looked up): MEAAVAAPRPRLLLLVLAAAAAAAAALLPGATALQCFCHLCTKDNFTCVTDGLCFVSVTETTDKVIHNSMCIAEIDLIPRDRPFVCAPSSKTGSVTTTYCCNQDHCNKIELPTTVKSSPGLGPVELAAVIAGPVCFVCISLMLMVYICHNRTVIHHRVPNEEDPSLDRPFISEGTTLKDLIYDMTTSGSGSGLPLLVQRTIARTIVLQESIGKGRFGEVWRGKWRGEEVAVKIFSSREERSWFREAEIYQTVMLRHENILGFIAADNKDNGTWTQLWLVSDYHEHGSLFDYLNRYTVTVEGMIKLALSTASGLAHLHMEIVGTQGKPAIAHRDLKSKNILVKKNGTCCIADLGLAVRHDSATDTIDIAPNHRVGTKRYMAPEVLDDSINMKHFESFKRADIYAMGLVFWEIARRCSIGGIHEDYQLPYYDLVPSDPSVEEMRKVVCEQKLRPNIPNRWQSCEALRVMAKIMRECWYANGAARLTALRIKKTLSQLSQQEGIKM

Series 1 — effect on: enzyme activity; mode: inhibitor; tested at: 0.5 µM; baseline: control; quantity: remaining activity
SMILES: O=C(Nc1cccc(Nc2nccc(Nc3cccc(C(F)(F)F)c3)n2)c1)C1CC1
Death-associated protein kinase 2 (DAPK2, Homo sapiens, UniProt Q9UIK4): 120%
Protein kinase C alpha type (PRKCA, Homo sapiens, UniProt P17252): 71.9%
cAMP-dependent protein kinase catalytic subunit alpha (PRKACA, Homo sapiens, UniProt P17612): 91.7%
TGF-beta receptor type-1 (TGFBR1, Homo sapiens, UniProt P36897): 102%
Cyclin-dependent kinase 5, with p25 (CDK5, Homo sapiens, UniProt Q00535): 99%
Calcium/calmodulin-dependent protein kinase type II subunit delta (CAMK2D, Homo sapiens, UniProt Q13557): 93.5%
G protein-coupled receptor kinase 3 (GRK3, Homo sapiens, UniProt P35626): 93.1%
TGF-beta receptor type-2 (TGFBR2, Homo sapiens, UniProt P37173): 91.6%
Serine/threonine-protein kinase 10 (STK10, Homo sapiens, UniProt O94804): 90.1%
Mitogen-activated protein kinase 9 (MAPK9, Homo sapiens, UniProt P45984): 98.7%
Mitogen-activated protein kinase kinase kinase 3 (MAP3K3, Homo sapiens, UniProt Q99759): 97.9%
Cyclin-dependent kinase 4, with cyclin D1 (CDK4, Homo sapiens, UniProt P11802): 101%
Serine/threonine-protein kinase Chk2 (CHEK2, Homo sapiens, UniProt O96017): 107%
Inhibitor of nuclear factor kappa-B kinase subunit epsilon (IKBKE, Homo sapiens, UniProt Q14164): 97.5%
Protein kinase C beta type, isoform beta-I (PRKCB, Homo sapiens, UniProt P05771): 94.7%
STE20/SPS1-related proline-alanine-rich protein kinase (STK39, Homo sapiens, UniProt Q9UEW8): 94.1%
Serine/threonine-protein kinase Nek2 (NEK2, Homo sapiens, UniProt P51955): 95.3%
Calcium/calmodulin-dependent protein kinase kinase 2 (CAMKK2, Homo sapiens, UniProt Q96RR4): 99.5%
Serine/threonine-protein kinase OSR1 (OXSR1, Homo sapiens, UniProt O95747): 78.9%
Death-associated protein kinase 1 (DAPK1, Homo sapiens, UniProt P53355): 83.5%
Inhibitor of nuclear factor kappa-B kinase subunit beta (IKBKB, Homo sapiens, UniProt O14920): 97.9%

Series 2 — effect on: cell-free assay; method: competition with immobilised ligand; tested at: 1 µM; quantity: remaining binding
Compound: COc1ccc2c(O[C@@H]3C[C@H]4C(=O)N[C@]5(C(=O)O)CC5/C=C\CCCCC[C@H](NC(=O)OC5CCCC5)C(=O)N4C3)cc(-c3csc(NC(=O)C(C)C)n3)nc2c1C (stereo partly shown)
Serine/threonine-protein kinase BRSK1 (BRSK1, Homo sapiens, UniProt Q8TDC3): 85%
Mitogen-activated protein kinase kinase kinase 14 (MAP3K14, Homo sapiens, UniProt Q99558): 89%
Tyrosine-protein kinase ABL1, phosphorylated (ABL1, Homo sapiens, UniProt P00519, Q252H): 80%
SNF-related serine/threonine-protein kinase (SNRK, Homo sapiens, UniProt Q9NRH2): 80%
Phosphatidylinositol 4,5-bisphosphate 3-kinase catalytic subunit alpha isoform (PIK3CA, Homo sapiens, UniProt P42336, H1047Y): 100%
SRSF protein kinase 2 (SRPK2, Homo sapiens, UniProt P78362): 100%
Fibroblast growth factor receptor 2 (FGFR2, Homo sapiens, UniProt P21802): 96%
Epidermal growth factor receptor (EGFR, Homo sapiens, UniProt P00533, G719S): 76%

Series 3 — Substitution: R32L; method: DHFR PCA, deep sequencing; sample: yeast; baseline: wild-type fitted maximum; direction: higher = stronger binding; quantity: relative binding score
Target: ABI1, truncated, D143A, DHFR fusion (Arabidopsis thaliana)
Setting: methotrexate growth selection, single substitutions
Starting sequence: PYL1, truncated, DHFR fusion (Arabidopsis thaliana); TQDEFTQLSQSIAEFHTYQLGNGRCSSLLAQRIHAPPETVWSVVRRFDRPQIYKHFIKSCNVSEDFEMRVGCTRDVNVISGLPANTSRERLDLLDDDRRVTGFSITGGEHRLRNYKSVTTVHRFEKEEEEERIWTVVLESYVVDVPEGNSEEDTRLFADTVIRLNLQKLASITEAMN
added: (+)-ABA 17 µM: 74.8%
added: (+)-ABA 0.0091 µM: 36%
added: (+)-ABA 0.032 µM: 30.5%
added: (+)-ABA 0 µM: 28.2%
added: (+)-ABA 4.8 µM: 64.3%
added: (+)-ABA 0.11 µM: 34.3%

Series 4 — method: aptamer microarray, sandwich; molecule type: DNA with 2'F-ANA; sample: in vitro; tested at: 200 nM; added: Cy3 exosite-II aptamer, 400 nM; direction: higher = stronger binding; quantity: mean fluorescence intensity; sequence: GGTTGGTGTGGTTGG
Target: Prothrombin, mature alpha-thrombin (F2, Homo sapiens, UniProt P00734)
Setting: whole 15-mer aptamer, many near background
2'F-ANA at 2 6 7 10 11 12 13 14: 87.8 a.u.
2'F-ANA at 1 6 11 12: 322 a.u.
2'F-ANA at 4 6 7 8 9 11 14: 93.3 a.u.
2'F-ANA at 4 5 7 8 9 11 13 14: 50.3 a.u.
2'F-ANA at 2 3 6 7 8 11 13 15: 564 a.u.
2'F-ANA at 3 5 11 12 13: 192 a.u.
2'F-ANA at 2 5 10 11 15: 51.2 a.u.
2'F-ANA at 1 2 3 4 7 8 9 10 11 12 13 14: 50.4 a.u.
